# Measurements collected from several papers.
# Each numbered part is a random draw from the data of one study; scales do not carry over between parts.

# Series 1 — method: protein binding microarray; form: double-stranded DNA, one strand shown; medium: in vitro; concentration: not given; relative to: not given; direction: higher = stronger binding
# Target: Histone acetyltransferase KAT6A, both winged helices, GST fusion (KAT6A, Homo sapiens, UniProt Q92794, residues 1-181)
# Setting: 8-mer, flanks averaged, mean of 2 arrays, mostly near background
# Residues (chain): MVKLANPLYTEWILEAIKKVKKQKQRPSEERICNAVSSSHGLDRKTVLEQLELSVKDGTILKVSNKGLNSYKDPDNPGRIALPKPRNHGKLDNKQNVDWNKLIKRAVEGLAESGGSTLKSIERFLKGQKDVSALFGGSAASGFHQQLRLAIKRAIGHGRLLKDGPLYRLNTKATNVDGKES
Strand,E-score
CAATCCGA,0.00775
ACACCGTG,0.219
AATAATTG,0.0119
GTCTACCA,-0.248
CATCGAAA,0.00793
CGACCAGC,0.0618
AGGACTAA,-0.0801
CATTTCTC,-0.015
TTCAAGAA,-0.124
AATTTTAA,-0.0915
CAGTGATG,-0.102
GACGTCAA,-0.0173
AGATAGGC,-0.255
AGTGGTGC,-0.112
AGGTGAAT,-0.127
CCCCTCCG,-0.00836
AATCCTCC,-0.107
AAACCTAT,0.00245

# Series 2 — method: universal PBM; form: double-stranded DNA, one strand shown; medium: in vitro; concentration: not given; direction: higher = stronger binding
# Target: Sal-like protein 4, full length isoform B (SALL4, Homo sapiens, UniProt Q9UJQ4-2, residues 1-616)
# Setting: 8-mer, flanks averaged, mean of replicates
Strand,E-score
AATACCAA,0.285
ACTCGGGA,-0.17
CTGCCGGC,-0.274
CACTTCAG,-0.00743
GCAGAACA,-0.0616
GTACGGAA,-0.0247
CCAGCAAC,-0.126
GCAATTGA,-0.0621
TGAGATCA,-0.06
AGTGGAGC,-0.0726
GATCGAGC,-0.143
CTCGGCTA,-0.237
TAGCCACA,0.0911
GGCCACCA,-0.17
CCCAGAGG,-0.279
ATCCCAAC,-0.023
CCATCCAC,-0.184
GGTCAGGA,-0.164
CTGCGAAC,-0.09

# Series 3 — method: RNA Bind-n-Seq; form: RNA; medium: in vitro; concentration: 365 nM; relative to: no-protein control; direction: higher = stronger binding
# Target: RNA binding protein fox-1 homolog 2, RRM domain, GST-SBP tag (RBFOX2, Homo sapiens, UniProt O43251-10, residues 100-194)
# Setting: natural RNA segment, single round, ends assumed
# Construct (chain): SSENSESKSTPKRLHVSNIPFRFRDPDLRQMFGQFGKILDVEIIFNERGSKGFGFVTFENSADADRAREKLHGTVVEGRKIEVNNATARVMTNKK
Strand,RBNS enrichment (R)
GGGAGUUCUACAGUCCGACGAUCGCUUUGUAAAAGCUUUGGUGUUAAGAGUCAAUAUUUUUUGGCUUUGUAGAUAAAGACUUAAAUUUUUGUGCAACAUAGUGGUGUUAAAGCACACAUCCAUUGGACUAUGCUGGAAUUCUCGGGUGCCAA,0.356
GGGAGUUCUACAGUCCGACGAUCCCACUGGGGAGGAAUCCUGGACCAAGCACAAAAACUUAACAAAAGUGAUGUAAAAAUGAAAAGCCAAAUAAAAAUCUUUGGAAAAGAGCCUGGAGGUUCAACGAGGAAAAUGGAAUUCUCGGGUGCCAA,0.507
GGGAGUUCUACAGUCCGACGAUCCAGUGGCGGAGUGAGGUGCCCUGGAGAAGCAGGCUUUGAAGGCACAGCGAAGCUGUAACUGAGGACCCUGCUGCUCGGGAAGGAGGUGGUUUCCAGUGUGACUCGGCAUGUGGAAUUCUCGGGUGCCAA,0.649
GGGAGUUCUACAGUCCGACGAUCAAUUAGAUUUCCCUAGGAGGUAUGACAUGCGAUUUACUGUAGGCUCUGAAUCCGAGUGCUCCAGUGCAGUGUAAUGAGCUCCAACUUGGUGUGUACUGCCUGCUGGACUGUGGAAUUCUCGGGUGCCAA,0.952
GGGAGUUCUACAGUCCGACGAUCGCUGCUUCGUCCCACUGCACCGCCUGGCUGAGGGCGUUAGGGGCUGUGCCUCUUGUGAGGGCCAUUUGGGACCUCCCUGGGGCACUGCACAAUUGAUAGUGUACCAAUAGUGGAAUUCUCGGGUGCCAA,0.307
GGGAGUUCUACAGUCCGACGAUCAACUGUUUGAUUAUAGAAAAGACCCCAGACUCAGAGGGAAGGCUCUCUGGUCUACCUGAGAUCUAUAUGGAGCUUAAAGGAGGGUGAAUAAGAUUAAUGACCUGAAUUGAUGGAAUUCUCGGGUGCCAA,0.376
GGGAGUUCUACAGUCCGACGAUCACAAGGCAGGACUUUGGCAAUGCCUUGGCCUCCUGGAAGCAUGUCUGAGCCCUCCUGUUCGCAGGGAUCAUGAGGAACAAGCCCUCCUGAGCUGCUACAGUUCCUGCCUGUGGAAUUCUCGGGUGCCAA,7.13
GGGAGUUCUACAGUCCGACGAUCUUGAAAGAUUACAAACAGCUGUUUCUCAAACCCUCUCAAUCCAUCAUAAUAAAAUACAUAAUAUUGUAUCUUUAGAAGUAAAUUAUUACAUUGUCUAUUUUCUUAAAAGUUGGAAUUCUCGGGUGCCAA,0.67
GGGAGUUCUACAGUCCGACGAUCAAUUAUGAGUGGCAGAGCUUUCUGUGUAUAAUUUGUCUACAUAAUUUGUCUAAUAAAAAUGUUUUCUAAACUUGCUCUCAUACUAUUGAAGUCUUAACUAUAAAAGUAAAUGGAAUUCUCGGGUGCCAA,0.629
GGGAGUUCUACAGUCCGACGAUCGCACCCUGCGCACCCAGGAGGGCCUUUUAUGUUUUGAUUCAUAUAUAAACACGAUGUUAUUUUUCUUUACAAAAGCAAAAAAAUAAAAACCGUACCAACCUUUGACUUGUUGGAAUUCUCGGGUGCCAA,0.711
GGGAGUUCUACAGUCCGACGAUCUCAUAUCUGGUUUUGUUUUUAUUUUUUUAUCAUGAACAUUAAAUGUGAUGAUGAUUUCUUUUCCCUGCACACAUCUUUCCGGUGCAAUAUCUAUCAAUUGUGAAUCUGGCUGGAAUUCUCGGGUGCCAA,0.638
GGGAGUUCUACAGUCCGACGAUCGCAAAGGAACAAGGUUUUAUGUAGGUGAGAGAAAGCAUUUGUACGAAGUUAGAUUUGAACAUAGAUAAGAUAGGUUAUUCCAGUUGAGAAUAUUGUUCGAAGAAUGUCUGUGGAAUUCUCGGGUGCCAA,1.4

# Series 4 — method: protein-binding microarray; form: double-stranded DNA, one strand shown; medium: in vitro; concentration: 940 nM top; setting: 60-bp whole probe; together with: salmon DNA 0.4 mg/ml; relative to: random background probes; direction: higher = stronger binding; shared flanks, not repeated: GCCTAGCAC … GTCTTGATTCGCTTGACGCTGCTG
# Target: Interferon regulatory factor 5, full length, phosphomimetic (IRF5, Homo sapiens, UniProt Q13568-2, residues 1-514, S451D/S453D/S456D/S462D)
Strand,fitted relative affinity
TTAGGTCTCGGAATCGGTTAGTGCTAG,1.97 z-score
GACGGACTGCTTTTTCTGACGTGCTAG,-0.164 z-score
TTAGATATCAGTATCGATTGGTGCTAG,4.39 z-score
GACGGTTTCGACTTTCGCGACGTGCTA,7.44 z-score
TTAGGTTTCGGGTATCGGTTCGTGCTA,11 z-score
GACGGTTTCCTTCACCTGACGTGCTAG,1.6 z-score
TTAGAAGTGGGGACTGGATTAGTGCTA,-0.0192 z-score
TCAAGAATCACAACTAGGACTGTGCTA,-0.267 z-score
GACGATCTCAGACTGGAGAGGTGCTAG,-0.406 z-score
GTAGGTCTCGGTTTCGGTTAGTGCTAG,9.19 z-score
GATGATTCCAGTTTCGAGACGTGCTAG,4.24 z-score
AAACGGATGATCTCTCTGGGCGTGCTA,-0.209 z-score
GTAGATTTCAGTCTCGATTAGTGCTAG,3.86 z-score
TTAGATTTCGGGTTTCGAGTAGTGCTA,2.86 z-score
GACGCTTTCCTTTCCCTGACGTGCTAG,1.2 z-score
GACGGACTGGGTATCTGGACGTGCTAG,-0.0562 z-score
GACGATCTCAGTTCCGAGACGTGCTAG,0.509 z-score
GACGGACTGCTTTTCCTGATGTGCTAG,-0.216 z-score
TTAGATCTCAAACTGGATTAGTGCTAG,-0.506 z-score
CACGGTTCCGGTTTCGGGACGTGCTAG,4.79 z-score
